Measurements collected from several papers.
Lines come from different studies, so protocols differ. ± marks the error that the study gave. Positions of bridges follow the written chain, without caps; N, C: chain ends. No end group written: not given here.
Streptavidin E68V/S69T/V71R: Streptavidin (Streptomyces avidinii, UniProt P22629, E68V/S69T/V71R)
UniProt P22629, sequence (whole entry, unmodified, looked up): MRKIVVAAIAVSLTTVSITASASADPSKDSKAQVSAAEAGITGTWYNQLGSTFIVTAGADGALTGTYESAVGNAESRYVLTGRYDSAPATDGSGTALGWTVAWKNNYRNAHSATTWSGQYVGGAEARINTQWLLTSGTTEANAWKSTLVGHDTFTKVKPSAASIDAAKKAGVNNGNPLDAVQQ
UniProt Q9QXD6, sequence (whole entry, unmodified, looked up): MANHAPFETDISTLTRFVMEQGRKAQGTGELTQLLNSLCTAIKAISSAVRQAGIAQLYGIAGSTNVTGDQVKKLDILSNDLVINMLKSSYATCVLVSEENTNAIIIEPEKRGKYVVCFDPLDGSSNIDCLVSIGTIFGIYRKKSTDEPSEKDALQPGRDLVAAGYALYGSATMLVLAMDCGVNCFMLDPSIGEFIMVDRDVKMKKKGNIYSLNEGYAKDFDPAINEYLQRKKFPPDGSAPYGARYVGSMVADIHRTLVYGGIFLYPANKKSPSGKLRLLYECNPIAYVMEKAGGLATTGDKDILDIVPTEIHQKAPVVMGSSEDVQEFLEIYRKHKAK

For `insulin human`, the fold change was 0.736 (item: AKT3 mRNA; EcoHIV-infected mouse, brain; i.p., dose not given; baseline: PBS).
With `nonaarginine` the Kd was 926 ± 100 nM (PorA peptide pore; peptide binding, planar bilayer single-channel recording; pH 7.4, -10 mV, cis side, 150 mM KCl).
`aspterric acid` has an inhibition of 99.2% (root length; Arabidopsis thaliana Col-0 seeds; 100 µg/mL, seed germination; baseline: water control).
`asialo ovine submaxillary mucin` has a Kd of 0.3 ± 0.1 nM (Vicia villosa lectin; glycan microarray).
For `TNP-AMP`, the Kd was over 100000 nM (Fructose-1,6-bisphosphatase 1 (Mus musculus, UniProt Q9QXD6, G27P); fluorescence titration; 1 µM enzyme, untagged; 25 °C, mutant G27P).
The Kd of `ACHPQFYMRCSG (disulfide 2-10 (inferred)) (disulfide)` is reported as 23.3 ± 0.8 nM (Streptavidin E68V/S69T/V71R; binding, yeast surface display; 1 h, 4 °C, together with: Strep-Tactin).
With `hexaarginine` the Kd was 18600 ± 2000 nM (PorA peptide pore; peptide binding, planar bilayer single-channel recording; pH 7.4, -20 mV, cis side, 150 mM KCl).
With `thalidomide-FITC conjugate` the Kd was 253 ± 38 nM (Protein cereblon, thalidomide-binding domain (CRBN, Homo sapiens, UniProt Q96SW2); binding, TR-FRET; CRBN thalidomide-binding domain).
`NQVANAQ` gave a Kd of over 120000 nM (Escherichia coli 23S rRNA H69, modified; binding, ESI-MS titration; peptide, 50% isopropanol, 150 mM ammonium acetate; together with: RNA 2.7 µM).
The survival of `Polymyxin B` is reported as 100% (mouse; intraperitoneal, 20 mg/kg single dose, day 1).
`ACHYHPQFYMRCSG (disulfide 2-12 (inferred)) (disulfide)` has a Kd of 3.2 ± 0.1 nM (Streptavidin E68V/S69T/V71R; binding, yeast surface display; 1 h, 4 °C, together with: Strep-Tactin).
Under “infusion site pain”, `heparin sodium` is recorded as 0% (healthy Chinese adult volunteers; continuous intravenous infusion, 8 IU/kg/h, 5 days).
The Kd of `PPAIIIT` is reported as about 300 nM (Protein phosphatase 3 catalytic subunit alpha, with calcineurin B (PPP3CA, Homo sapiens, UniProt Q08209); binding, stopped-flow FRET; peptide; 36 °C, together with: AKAP79(333-408)).
